Published values from different studies.
Protocols differ between the studies behind these lines. Numbers after ± are the reported error.

Structure (SMILES)	assay	system	setting	quantity	result
Cc1nc(Nc2ncc(C(=O)Nc3c(C)cccc3Cl)s2)cc(N2CCN(CCO)CC2)n1	–	human patients	85 mg/m^2, day 42	apparent clearance (CL/F)	2500 ± 605 mL/min/m²
NC[C@@]1(CC(=O)O)[C@@H]2CC[C@H]3C[C@@H]2[C@@H]1C3	–	human, normal renal function, plasma	oral, 20 mg single dose, geometric mean	apparent volume of distribution	56.9 L
CCCn1cc(C)c2c(=O)[nH]c(-c3cc(S(=O)(=O)N4CCN(CC)CC4)ccc3OCC)nc21	LC-MS/MS	human, plasma	oral, 100 mg, crossover trial, alone	apparent volume of distribution (Vd/F)	4820 ± 2030 L
Nc1nc2cccc(-c3ccc(CN4CCS(=O)(=O)CC4)cc3)n2n1	population PK bootstrap median	human	dose not given	apparent central volume	81.3 L
C[C@@]1(c2cc(NC(=O)c3ccc(C#N)cn3)ccc2F)C=CSC(N)=N1	–	elderly humans, both sexes, plasma	oral, 10 mg single dose, mean	apparent clearance CL/F	10.3 L/h
C[C@H](Cn1cnc2c(N)ncnc21)OCP(=O)(O)O	population PK model	human, plasma	oral, dose not given, simultaneous model estimate	apparent volume of distribution	2380 L
CCCOc1ccc([C@H]2CNC(=O)N2c2ccc3[nH]cnc3c2)cc1	–	human volunteers fasted, plasma	oral tablet, 200 mg single dose, crossover, geometric mean	apparent terminal half-life	214 min
C[C@@H](Oc1ccc(S(C)(=O)=O)cc1C(=O)N1C[C@@H]2C[C@]2(c2cc(C(F)(F)F)on2)C1)C(F)(F)F	–	young humans, plasma	oral, 75 mg single dose, geometric mean	apparent clearance (CL/F)	71.6 mL/min
COc1cc(C(=O)NC2CCN(C)CC2)c(F)cc1Nc1ncc(C(F)(F)F)c(Oc2cccc3c2C(=O)N(C)C3)n1	–	human patients, plasma	oral, 25 mg single dose, geometric mean	apparent oral clearance CL/F	180 mL/min
COc1ccc(-n2nc(C(N)=O)c3c2C(=O)N(c2ccc(N4CCCCC4=O)cc2)CC3)cc1	–	human, plasma	oral, dose not given, Final population PK model	apparent peripheral volume	23.9 ± 1.81 L
CCCCCCCCCCCCCCCC(=O)N[C@@H](CCC(=O)NCCCC[C@@H]1NC(=O)[C@H]([C@@H](C)CC)NC(=O)[C@@H](NC(=O)[C@@H]2CCCN2C(=O)[C@H](Cc2ccccc2)NC(=O)[C@H](Cc2c[nH]cn2)NC(=O)[C@@H](NC(=O)[C@H](CC(=O)O)NC(=O)CC(C)C)[C@@H](C)O)CSSC[C@@H](C(=O)N[C@@H](CCCCN)C(N)=O)NC(=O)CNC(=O)[C@H](CCCCN)NC(=O)[C@H](CO)NC(=O)[C@H](CCCNC(=N)N)NC(=O)[C@@H]2CCCN2C(=O)[C@H](CCC(=O)O)NC(=O)[C@H](Cc2ccccc2)NC1=O)C(=O)O	–	healthy human, plasma	subcutaneous, 20 mg, single dose, aqueous formulation	apparent volume Vz/F	79.2 ± 59.7 L
Cl.[2H]C([2H])([2H])CC(=O)c1cnc(NC(=O)C2CC2)cc1Nc1cccc(-c2ncn(C([2H])([2H])[2H])n2)c1OC	–	human, non-fasted	oral, 30 mg twice daily, day 14, multiple dose, tablet, geometric mean	apparent volume at steady state	175 L
Cc1c(OCC(F)(F)F)ccnc1C[S+]([O-])c1nc2ccccc2[nH]1 (centres unmarked)	–	human, plasma	oral, median	apparent oral clearance	12.4 L/h
Cn1cc(-c2cn3nccc3c(-c3cnn([C@]4(CC#N)C[C@@H](C#N)C4)c3)n2)cn1	–	healthy humans fasted, plasma	3 mg single dose, geometric mean	apparent volume Vz/F	312 L
C=CC(=O)N(C)CCOc1c(N)ncnc1-c1cc(F)cc(NC(=O)c2ccc(C3CC3)cc2F)c1C	–	human, whole blood	oral, 15 mg, single ascending dose	apparent clearance CL/F	511 L/h
C=CC(=O)NC1CCN(c2ncc3ncnc(Nc4ccc(Oc5ccc6c(c5)ncn6C)c(C)c4)c3n2)CC1	–	human	oral, 60 mg single dose, geometric mean	apparent oral clearance	9.06 L/h
Cc1cc(C)c(CNC(=O)c2cc(Cl)c3c(c2C)O[C@@](C)([C@H]2CC[C@H](N(C)C)CC2)O3)c(=O)[nH]1	–	healthy male human, plasma	oral, 25 mg, alone, before itraconazole	apparent volume of distribution	836 L

Some of these lines once more:
Structure (SMILES)	assay	system	setting	quantity	result
COc1cc(C(=O)NC2CCN(C)CC2)c(F)cc1Nc1ncc(C(F)(F)F)c(Oc2cccc3c2C(=O)N(C)C3)n1	–	human patients, plasma	oral, 25 mg single dose, geometric mean	apparent oral clearance CL/F	180 mL/min
COc1ccc(-n2nc(C(N)=O)c3c2C(=O)N(c2ccc(N4CCCCC4=O)cc2)CC3)cc1	–	human, plasma	oral, dose not given, Final population PK model	apparent peripheral volume	23.9 ± 1.81 L
